Measurements of several laboratories.
Every numbered part comes from another study and shows a few of its results, in no order. Substitutions count along the parent as printed.

Study 1
Target: Histone acetyltransferase KAT6A, winged helix 2, GST fusion (KAT6A, Homo sapiens, UniProt Q92794, residues 85-181)
Method: protein binding microarray
Molecule type: double-stranded DNA, one strand shown
Sample: in vitro
Concentration: not given
Notes: 8-mer, flanks averaged, mean of 2 arrays, mostly near background
Baseline: not given
Direction: higher = stronger binding
Quantity: E-score
Construct (chain): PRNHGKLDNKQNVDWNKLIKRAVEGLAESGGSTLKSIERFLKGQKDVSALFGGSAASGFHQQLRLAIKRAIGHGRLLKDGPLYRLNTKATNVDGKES
AAATAGAC: 0.0374
CTATTATA: 0.0752
TGCATACA: -0.0558
GTTCTGCA: 0.0343
CCGTTACA: 0.0115
AGTGACGC: 0.0794
ACTGGCTA: -0.0268
GAATAGTA: 0.138
CGTGCATC: -0.0455
CCTTAAGC: -0.00911
GCAGGCCC: 0.0177
AGACTTAA: -0.0998
GACGGGGA: -0.0623
TGCCCACA: 0.0213
ACCGGCCC: 0.151
AGGCATAG: -0.058
CAAGAGGG: -0.00562
ATCGGTAA: 0.0275
AGTTTTTG: -0.0677
GCGAACAC: 0.116

Study 2
Target: CCNB2, cyclin fold, Cln2 fusion (human)
Method: yeast growth competition, sequencing
Sample: yeast
Notes: weak parent motif
Baseline: not given
Direction: higher = stronger binding
Quantity: normalised enrichment score
Starting sequence: ORC1 docking peptide (human); PRARKRLELGNLG
PRARKRLELGNLC [G13C]: 0.662
PTARKRLELGNLG [R2T]: 0.64
PRARKRLELGNYG [L12Y]: 0.457
PRARKRLELMNLG [G10M]: 0.745
PRAVKRLELGNLG [R4V]: 0.0422
PMARKRLELGNLG [R2M]: 0.619
PRARVRLELGNLG [K5V]: 0.122
PRARKRLELINLG [G10I]: 0.552
PRARHRLELGNLG [K5H]: 0.258
PRARKRLELGMLG [N11M]: 1.08
PRARKRLELGNTG [L12T]: 0.654
PRARKRLELGNLM [G13M]: 0.22
PRARKRLGLGNLG [E8G]: 0.541
PRARKRCELGNLG [L7C]: 0.664
PRGRKRLELGNLG [A3G]: -0.17
PRARKRLELGNIG [L12I]: 0.43
PRARKRLELGNLS [G13S]: 0.751
PRARMRLELGNLG [K5M]: 0.226
PRARKRLELPNLG [G10P]: 0.112
PRARKRYELGNLG [L7Y]: 0.588
PRARKRLTLGNLG [E8T]: 0.425
PRPRKRLELGNLG [A3P]: 0.854
PRARKRLECGNLG [L9C]: 0.919
PRARKELELGNLG [R6E]: -0.311
PRARKRLELGNMG [L12M]: 0.645

Study 3
Target: RNA binding protein fox-1 homolog 2, RRM domain, GST-SBP tag (RBFOX2, Homo sapiens, UniProt O43251-10, residues 100-194)
Method: RNA Bind-n-Seq
Molecule type: RNA
Sample: in vitro
Concentration: 365 nM
Notes: natural RNA segment, single round, ends assumed
Baseline: no-protein control
Direction: higher = stronger binding
Quantity: RBNS enrichment (R)
All sequences stand within: GGGAGUUCUACAGUCCGACGAUC … UGGAAUUCUCGGGUGCCAA
Construct (chain): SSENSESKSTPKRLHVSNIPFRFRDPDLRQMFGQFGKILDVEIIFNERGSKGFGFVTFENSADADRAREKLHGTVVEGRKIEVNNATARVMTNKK
AACUGUCACCACUGCUAAGGGACUCUAUCCAUUGAGCACAUUUUCCUAAGGCCCUGCUGUCUGCCGAGGAGCGCCAAGAAGAUGUCACUUGUUUACACACGAACUGCCAC: 0.806
GGUUCUUGGGCACACUCUAUAGCCAUACUGGACAGGAACCAGGUGCCCCGUGUAGGCAUCGUCGGUCGGUUUGCCGUCAGAGAUGGCGCAUCUCGCUGCAUCCCCCGAGA: 0.45
UGUGAAACACGACAUGAUCAAAGGAGACAGACAGUAUUUUGACUAAUAUGAAGUAGAGAUUACUUUACACUACAUUGUACAUGGAGUAAUUCAACUGAAUAAAAGUGUCA: 0.372
CUGGACUGUCAGCUGUCCAACUGUCCCUGUUGUAAGUGCUAUUAACUAUCUCAGUUACCAGAAUCUUGCUGCUCAAGUUUCGAGUGAUCGACAAUGGAUUUUUAACCAAG: 0.299
AUUUAAUAAAACCUUCAAGAGAGAGUAAUGGACGGAGUGCAUUCUCCUUGAAAACUGUUCAGAGUUUACGUCUCGUUUGGGUUCAGUUUACAUAAGUGUGUGGGUGUCUU: 0.658
UGAAGACACUGAAAUACAGACUUAAAUAGCUCAGAUAGCUAAUUAGGAAAUUUCAAGUUGGCCAAUAAUAGCAUUCUCUCUGACAUUUAAAAAUAAUUUCUAUUCAAAAU: 0.637
UCGGGAGGCUGAGGCAGGAGAAUCGCUUGAACCCUGGCGAAACCCCAUUUCUAAAAUAGAAAAAUUUAGCCGGGUGUGGUGGUGUGUGCCUAUAGUCCCAGCUAUUCGGG: 0.842
GCAGAGUUGGGUGCUAAGAUCCUGAGGAGCUCGAGGUUUCGAGCUGGCUUUAGACAUUGGUGGGACCAAGGAUGUUUUGCAGGAUGCCCUGAUCCUAAGAAGGGGGCCUG: 0.508
UUAAUCAGUGAAUCAAAUUAUGAUUACAAUUAUCAAAUGAAUGCUCAGCAUUAAUUGAAAACUGUUUUGUGAAACAUGUCUACCCAGAAAAGUAGCAUUCUAUAAAUACU: 0.31
GGAAUCUGAGUUGCCAACUUCAGGACGACACCUGGCUUGCCACCCACAGUGCACCACAGGCCAACCUACGCCCUUCAUCACUUGGUUCUGUUUUAAUCGACUGGCCCCCU: 0.29
UUAUUCCACUGCUUCUCCCAGCAUUCUGGUGCCUCCAAGCCAUCCCCUCCCACCACCAGCUCUAAGAUUCUAGGAUAGUCUUGAUAACAUUUCAGUACCUGAAUAGAUGU: 0.861
UAAAGAUUUUGUUUUGCCCUGCAAAUAAAAAGACAAUUCCUUAUUGUCUGAAUGUAAUACAGUCUUCAUUGUACUAUUCAACCCUUUGUUUCUUUCUUUUUCAUUUUGUG: 0.717

Study 4
Target: Interferon regulatory factor 3, full length, phosphomimetic (IRF3, Homo sapiens, UniProt Q14653, residues 1-427, S386D/S396D/S398D/S402D/T404D/S405D)
UniProt Q14653, sequence (whole entry, unmodified, looked up): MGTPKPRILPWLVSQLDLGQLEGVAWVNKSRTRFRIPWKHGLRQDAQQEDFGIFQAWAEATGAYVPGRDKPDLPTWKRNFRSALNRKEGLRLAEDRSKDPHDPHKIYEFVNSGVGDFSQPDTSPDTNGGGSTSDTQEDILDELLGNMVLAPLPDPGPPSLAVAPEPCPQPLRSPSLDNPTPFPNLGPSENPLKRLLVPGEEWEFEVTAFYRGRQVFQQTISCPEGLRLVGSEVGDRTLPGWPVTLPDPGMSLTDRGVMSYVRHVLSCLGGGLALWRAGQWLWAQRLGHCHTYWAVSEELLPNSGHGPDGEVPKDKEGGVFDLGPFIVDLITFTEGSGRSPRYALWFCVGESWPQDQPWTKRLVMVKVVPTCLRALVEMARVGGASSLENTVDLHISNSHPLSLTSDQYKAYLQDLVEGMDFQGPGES
Method: protein-binding microarray
Molecule type: double-stranded DNA, one strand shown
Sample: in vitro
Concentration: 2540 nM top
Notes: 60-bp whole probe
With: salmon DNA 0.4 mg/ml
Baseline: random background probes
Direction: higher = stronger binding
Quantity: fitted relative affinity
All sequences stand within: GCCTAGCAC … GTCTTGATTCGCTTGACGCTGCTG
TCATGTACGTCGTTTCCCACTGTGCTA: 1.25 z-score
TTAGGTCTCAGTCTCGGTTAGTGCTAG: 1.09 z-score
GACGGTTTCGGGACTTGGGACGTGCTA: 4.22 z-score
TCAGGACTGGGGTATCGGTTAGTGCTA: 0.12 z-score
TCAACACTAGTTTTTACACTGTGCTAG: 0.0413 z-score
TACGGACTGCTTCTCCTGACGTGCTAG: -0.125 z-score
ACATTCCATGAGCCCACTGGGTGCTAG: 0.521 z-score
TTAGGTTTCGGTTTCTGTTAGTGCTAG: 10.6 z-score
GACGATCTCCGACTGGAGACGTGCTAG: 0.406 z-score
GACGGTCTTCTTATCCTGACGTGCTAG: 0.662 z-score
GAAGGACTGGGGTTTCGGGACGTGCTA: 0.531 z-score
GACGGTTTCGATTTCGGGACGTGCTAG: 7.89 z-score
TTAGGACTGCTTCTCCTGTAGTGCTAG: -0.353 z-score
TTAGATATCAGTCTCGATTCGTGCTAG: 1.51 z-score
TTAGCTATCGGTCTCGGTTAGTGCTAG: 1.55 z-score
TTAGTTTTCGGGTATCGATTAGTGCTA: 2.56 z-score
TCATTTTTTTCTTTTATACTGTGCTAG: 1.95 z-score
GACGATATCAGTCGCGAGACGTGCTAG: -0.0403 z-score
GACGATTTCCGTTTCGAGACGTGCTAG: 5.65 z-score
TCAGCATTTTTTTTATCACTGTGCTAG: 0.193 z-score
TCAGGACTCAGGTCTCCCACTGTGCTA: 0.151 z-score
CAGTTTTCCTCTGTCATTTTGTGCTAG: 3.2 z-score

Study 5
Target: CEP164, C-terminal peptide (human)
Method: DHFR complementation, deep sequencing
Sample: yeast
Notes: single substitutions, model-inferred values
Baseline: wild type
Direction: higher = weaker binding
Quantity: binding free energy change
Starting sequence: PDZK1, PDZ domain 2 (human); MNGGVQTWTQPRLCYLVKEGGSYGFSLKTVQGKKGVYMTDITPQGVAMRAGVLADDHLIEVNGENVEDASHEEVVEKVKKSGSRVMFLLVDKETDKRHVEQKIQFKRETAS; partner HNRVKVYRF
H57N: 0.028 kcal/mol
Q31I: -0.349 kcal/mol
Q44N: -0.0626 kcal/mol
K34R: 0.0885 kcal/mol
V5C: -0.0538 kcal/mol
E19F: 0.476 kcal/mol
H98T: -0.0425 kcal/mol
V30P: 1.07 kcal/mol
N2H: -0.0737 kcal/mol
V52A: 0.575 kcal/mol
A47N: 1.56 kcal/mol
N62C: 1.15 kcal/mol
T109E: -0.258 kcal/mol
T39A: 0.127 kcal/mol
Q6R: -0.125 kcal/mol
L16T: 1.45 kcal/mol
H98C: -0.0341 kcal/mol
D91F: 0.231 kcal/mol
C14G: 1.32 kcal/mol
D91S: -0.21 kcal/mol
Q31D: 0.0767 kcal/mol
E100I: -0.0615 kcal/mol
E19L: 0.451 kcal/mol
C14N: 1.32 kcal/mol
V75F: 1.37 kcal/mol

Study 6
Target: Sal-like protein 4, full length isoform A (SALL4, Homo sapiens, UniProt Q9UJQ4, residues 1-1053)
UniProt Q9UJQ4, sequence (whole entry, looked up): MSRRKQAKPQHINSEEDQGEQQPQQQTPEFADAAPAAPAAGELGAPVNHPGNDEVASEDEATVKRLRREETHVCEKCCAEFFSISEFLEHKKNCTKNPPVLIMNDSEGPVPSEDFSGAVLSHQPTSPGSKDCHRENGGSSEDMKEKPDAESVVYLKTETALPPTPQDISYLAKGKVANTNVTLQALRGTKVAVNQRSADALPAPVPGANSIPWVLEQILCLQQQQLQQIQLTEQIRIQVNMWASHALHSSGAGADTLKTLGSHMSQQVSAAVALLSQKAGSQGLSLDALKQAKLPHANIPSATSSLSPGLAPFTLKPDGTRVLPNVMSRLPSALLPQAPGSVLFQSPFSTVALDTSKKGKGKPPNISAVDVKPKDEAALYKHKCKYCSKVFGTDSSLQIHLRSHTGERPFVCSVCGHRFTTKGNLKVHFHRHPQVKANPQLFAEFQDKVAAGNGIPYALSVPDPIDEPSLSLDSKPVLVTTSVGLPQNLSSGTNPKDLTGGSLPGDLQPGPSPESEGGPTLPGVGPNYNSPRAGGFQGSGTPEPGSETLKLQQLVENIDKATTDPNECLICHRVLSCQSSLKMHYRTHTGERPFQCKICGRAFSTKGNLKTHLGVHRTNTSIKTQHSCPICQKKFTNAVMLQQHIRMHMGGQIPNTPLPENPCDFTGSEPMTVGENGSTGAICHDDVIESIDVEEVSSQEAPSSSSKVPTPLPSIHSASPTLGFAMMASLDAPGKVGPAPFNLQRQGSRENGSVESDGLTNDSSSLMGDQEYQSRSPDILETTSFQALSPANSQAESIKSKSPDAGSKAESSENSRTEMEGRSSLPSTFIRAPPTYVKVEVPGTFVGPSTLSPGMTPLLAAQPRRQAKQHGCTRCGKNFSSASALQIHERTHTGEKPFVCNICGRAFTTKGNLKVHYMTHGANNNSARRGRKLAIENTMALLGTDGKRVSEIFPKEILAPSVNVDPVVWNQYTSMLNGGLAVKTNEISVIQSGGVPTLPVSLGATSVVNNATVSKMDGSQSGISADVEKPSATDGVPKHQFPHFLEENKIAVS
Method: universal PBM
Molecule type: double-stranded DNA, one strand shown
Sample: in vitro
Concentration: 600 nM
Notes: 8-mer, flanks averaged, mean of replicates
Direction: higher = stronger binding
Quantity: E-score
CGGCTAAG: -0.217
AAACTGAA: 0.182
ACTCAATA: 0.322
GGCTTGGA: -0.208
AGTATTCA: 0.217
CTCCCTGA: -0.165
GTCTCCCA: -0.236
TGTTCAAA: 0.166
ACGCGGGG: -0.267
CGCAGGCA: -0.167
ATCATTTA: 0.336
ATAGACGC: 0.158
GTCAATGA: 0.0854
AAATCCGG: -0.144
GATCACGC: -0.164
GCGTACGA: -0.0584
AAAATCGG: 0.0953
GCTTTTCA: 0.0615
ATTGTCCG: 0.0574

Some of these lines once more (study 6):
GTCTCCCA: -0.236
ATAGACGC: 0.158
GCGTACGA: -0.0584
GCTTTTCA: 0.0615
AGTATTCA: 0.217
AAATCCGG: -0.144
AAACTGAA: 0.182
CGGCTAAG: -0.217
ACTCAATA: 0.322
AAAATCGG: 0.0953
ATTGTCCG: 0.0574
CTCCCTGA: -0.165
GGCTTGGA: -0.208
